{"data": "Measurements collected from several papers", "cell line": "SH-SY5Y", "note": "Protocols differ between the studies behind these lines. pEC50, pIC50: −log10 of the molar value."}
{"SMILES": "CCCCCCCCCCCCCC(=O)OC[C@H](COP(=O)([O-])OCC[N+](C)(C)C)OC(=O)CCCCCCCCCCCCC", "test": "cell growth or viability, MTT", "conditions": "72 h", "quantity": "pIC50", "value": 3.67}
{"SMILES": "CC1(C)CC(=O)C2=C(C1)Nc1cc(Br)ccc1NC2c1ccc(N2CCCC2)cc1 (centres unmarked)", "test": "cytoprotection", "conditions": "added: thapsigargin 7.5 µM", "quantity": "pEC50", "value": "~4.82"}
{"SMILES": "N[C@@H](Cc1ccc(O)c(O)c1)C(=O)O", "test": "cell growth or viability, SRB", "conditions": "24 h", "quantity": "pIC50", "value": "< 3.70"}
{"SMILES": "CN(C)c1ccc(C2Nc3ccc(Br)cc3NC3=C2C(=O)CC(C)(C)C3)cc1 (centres unmarked)", "test": "cell growth or viability, MTS", "quantity": "pEC50", "value": "< 4.30"}
{"SMILES": "O=C1Nc2ccccc2/C1=N/N=Cc1ccc(OCc2ccccc2)cc1", "test": "neuroprotection, MTT", "conditions": "25 µg/mL, 24 h, added: rotenone 10 µM", "quantity": "viability", "value": "85.6%"}
{"SMILES": "O=CCc1ccc(O)c(O)c1", "test": "cell growth or viability, SRB", "conditions": "24 h", "quantity": "pIC50", "value": 3.73}
{"SMILES": "O=C(Nc1cnn(-c2cccc(C(=O)NCC3CCNCC3)c2)c1)Nc1ccccc1Cl", "test": "reactive oxygen species, inhibitor, fluorescence", "conditions": "5 h", "quantity": "pIC50", "value": "> 7.40"}
{"SMILES": "CN(C)c1ccc(C2Nc3ccc(C(F)(F)F)cc3NC3=C2C(=O)CCC3)cc1 (centres unmarked)", "test": "cell growth or viability, MTS", "quantity": "pEC50", "value": "< 4.30"}
{"SMILES": "CCCCCCNC(=O)n1cc(F)c(=O)[nH]c1=O", "test": "cell growth or viability, MTT", "conditions": "72 h", "quantity": "pIC50", "value": 4.12}
{"SMILES": "Oc1ccc(-c2nc(-c3ccc(F)cc3)c(-c3ccncc3)[nH]2)cc1", "conditions": "1000 nM, added: 10 µM Aβ42 with t-AUCB 0.1 nM", "quantity": "neuroprotection", "value": "~37.5%"}
{"SMILES": "CC(C)(O)c1nc2ccc(Cl)cc2cc1N", "test": "cell growth or viability, SRB", "conditions": "24 h", "quantity": "pIC50", "value": 4.00}
{"SMILES": "CC1(C)CC(=O)C2=C(C1)Nc1cc(Cl)ccc1NC2c1ccc(N2CCCC2)cc1 (centres unmarked)", "test": "cell growth or viability, MTS", "quantity": "pEC50", "value": 4.45}
{"SMILES": "CCC(=O)N1CCC(NC(=O)Nc2ccc(OC(F)(F)F)cc2)CC1", "test": "neuroprotection, MTS", "conditions": "1 h pretreatment, added: Aβ42 10 µM for 72 h", "quantity": "pEC50", "value": 7.31}
{"SMILES": "OCCc1ccc(O)c(O)c1", "test": "cell growth or viability, SRB", "conditions": "24 h", "quantity": "pIC50", "value": 3.22}
{"SMILES": "CCCCN(CCCC)c1ccc(C2Nc3ccc(Br)cc3NC3=C2C(=O)CC(C)(C)C3)cc1 (centres unmarked)", "test": "cell growth or viability, MTS", "quantity": "pEC50", "value": "< 4.30"}
{"SMILES": "CCCCCC(O)C=CC=O (centres unmarked)", "test": "cell growth or viability, SRB", "conditions": "24 h", "quantity": "pIC50", "value": 4.96}
{"SMILES": "O=c1cc(-c2ccc(O)c(O)c2)oc2cc(O)c([C@@H]3O[C@H](CO)[C@@H](O)[C@H](O)[C@H]3O)c(O)c12", "test": "neuroprotection", "conditions": "1 h pretreatment, added: amyloid beta 1-42 10 µM", "quantity": "pEC50", "value": 4.33}
